Experimental data pooled from the literature.
Each numbered part is a random draw from the data of one study; scales do not carry over between parts.

Set 1
Target: Histone acetyltransferase KAT6A, winged helix 2, GST fusion (KAT6A, Homo sapiens, UniProt Q92794, residues 85-181)
Technique: protein binding microarray
Molecule type: double-stranded DNA, one strand shown
Matrix: in vitro
Tested at: not given
Setting: 8-mer, flanks averaged, mean of 2 arrays, mostly near background
Relative to: not given
Reading: higher = stronger binding
Construct (chain): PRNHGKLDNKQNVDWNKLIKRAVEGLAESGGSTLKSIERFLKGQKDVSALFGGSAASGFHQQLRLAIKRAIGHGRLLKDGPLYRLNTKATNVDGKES
Sequence	E-score
ATTCACGC	-0.0794
GAAGACAC	-0.0401
TAGACTCA	-0.17
TAACCCAA	-0.129
CCGGGCGC	0.252
AGACTTCG	-0.159
AATGAACG	-0.196
ACTAGCTC	0.0476

Set 2
Target: Sal-like protein 4, full length isoform A (SALL4, Homo sapiens, UniProt Q9UJQ4, residues 1-1053)
UniProt Q9UJQ4, sequence (whole entry, looked up): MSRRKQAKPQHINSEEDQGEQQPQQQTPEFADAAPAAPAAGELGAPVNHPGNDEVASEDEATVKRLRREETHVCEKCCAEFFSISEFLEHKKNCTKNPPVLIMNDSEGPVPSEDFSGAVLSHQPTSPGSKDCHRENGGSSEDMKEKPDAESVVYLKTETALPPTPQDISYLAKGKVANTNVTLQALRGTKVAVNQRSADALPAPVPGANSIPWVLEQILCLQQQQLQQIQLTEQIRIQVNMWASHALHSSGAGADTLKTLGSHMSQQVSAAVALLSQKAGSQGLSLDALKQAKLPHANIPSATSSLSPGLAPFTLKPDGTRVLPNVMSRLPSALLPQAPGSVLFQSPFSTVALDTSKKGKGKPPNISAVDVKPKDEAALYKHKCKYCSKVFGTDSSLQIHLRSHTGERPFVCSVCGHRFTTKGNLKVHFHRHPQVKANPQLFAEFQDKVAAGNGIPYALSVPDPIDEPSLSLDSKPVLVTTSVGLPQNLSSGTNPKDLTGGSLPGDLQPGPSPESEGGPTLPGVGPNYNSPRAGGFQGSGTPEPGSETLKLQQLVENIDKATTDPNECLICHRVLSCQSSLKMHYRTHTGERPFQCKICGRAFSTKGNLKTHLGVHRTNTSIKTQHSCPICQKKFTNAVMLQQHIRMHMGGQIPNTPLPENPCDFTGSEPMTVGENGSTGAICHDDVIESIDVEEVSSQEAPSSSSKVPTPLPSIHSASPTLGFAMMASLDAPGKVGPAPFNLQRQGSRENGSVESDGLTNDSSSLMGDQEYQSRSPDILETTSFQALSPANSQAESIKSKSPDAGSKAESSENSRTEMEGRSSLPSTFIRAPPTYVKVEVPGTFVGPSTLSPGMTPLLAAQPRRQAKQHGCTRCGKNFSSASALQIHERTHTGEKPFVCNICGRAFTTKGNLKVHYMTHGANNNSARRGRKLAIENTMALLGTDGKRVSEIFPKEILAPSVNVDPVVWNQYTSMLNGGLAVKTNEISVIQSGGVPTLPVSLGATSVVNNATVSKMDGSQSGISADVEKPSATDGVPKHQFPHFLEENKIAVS
Technique: universal PBM
Molecule type: double-stranded DNA, one strand shown
Matrix: in vitro
Tested at: 600 nM
Setting: 8-mer, flanks averaged, mean of replicates
Reading: higher = stronger binding
Sequence	E-score
AAGGCGTA	-0.0759
ATAAGGGG	0.0294
CCTTCTGC	-0.173
TAAACTTA	0.235
AGGATGAC	-0.0319
GATTAGTA	0.256
GATTATCA	0.246

Set 3
Target: RING finger protein unkempt homolog, zinc fingers 1-6, GST-SBP tag (UNK, Homo sapiens, UniProt Q9C0B0, residues 30-357)
UniProt Q9C0B0, sequence (30-357, looked up): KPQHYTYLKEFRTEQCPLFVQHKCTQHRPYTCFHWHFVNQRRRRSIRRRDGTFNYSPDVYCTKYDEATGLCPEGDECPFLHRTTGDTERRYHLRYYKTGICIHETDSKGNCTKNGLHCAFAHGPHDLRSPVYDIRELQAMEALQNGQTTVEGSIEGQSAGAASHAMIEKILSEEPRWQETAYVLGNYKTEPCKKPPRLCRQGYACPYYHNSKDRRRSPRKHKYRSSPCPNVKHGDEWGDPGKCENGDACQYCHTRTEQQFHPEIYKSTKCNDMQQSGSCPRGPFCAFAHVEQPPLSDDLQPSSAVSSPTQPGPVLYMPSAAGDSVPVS
Technique: RNA Bind-n-Seq
Molecule type: RNA
Matrix: in vitro
Tested at: not given
Setting: RNA with constant flanks, human and mouse sites, ends assumed
Relative to: input RNA pool
Reading: higher = stronger binding
Sequence	bound/input enrichment [ratio]
GGGAGUUCUACAGUCCGACGAUCCAGCUGCUUACCUGAACAUAACCUUAUGCUGCCCUUGGCUUGGCCACAUUUGUUAAAUCCUUAUUAUAUUGAUACUCUUCUUGAGGAGGAAAUCUCACCUUUUCUUUUUCAAGAGAUUCUCAACAGAGGAUUGAGCAUCA	0.413
GGGAGUUCUACAGUCCGACGAUCGAUAGAACUGUAUGGCCCUUGAUAAGAAUCUAUCGGGGUGGCUUUCUUCUGAUUGAAUUCCUUUUUCUACUGGGCAUCAACACAUAUGGUUGGAGACAAGCUGGAGUAAAUCAUGUCCUCCAACAGAGGAUUGAGCAUCA	0.231
GGGAGUUCUACAGUCCGACGAUCAUGCUCCGCCAGAUCCUCGGGCAAGCCAAGAAGCAUCCCAGCUUGAUUCCUCUCUUCGUAUUUAUUGGAGCAGGGGGUACUGGAGCAGCACUGUAUGUGAUGCGCUUGGCACUGUUUAAUCAACAGAGGAUUGAGCAUCA	0.122
GGGAGUUCUACAGUCCGACGAUCUGCAUUCUACGGCUGUUGGCCCAUUCAUGUCCUCUUGAUGUAUAUGCUGCUUGCCAGAGGUUAGCUUUCUGCAUACUUCAGCCCAUAAUAAUGAAAUCAGCAGUACUCACAUAUUUUGGGCAACAGAGGAUUGAGCAUCA	0.147

Further values, each from its own experiment
Substance	target	test	system	setting	how to read	endpoint	value
PhoQ, residues 284 288 289 292 302 303 NLMGRA	PhoP, residues 12 14 15 18 19 TQAIL (Escherichia coli, UniProt P23836)	Sort-seq, item: YFP reporter	E. coli	PhoQ-PhoP variant library, together with: 10 µM Mg2+	relative to: high Mg2+ state, higher = stronger signaling	fold induction	18.4

A few entries again (set 1):
Sequence	E-score
ATTCACGC	-0.0794
